Results from different studies.
Each line is one published result; not all experiments were run side by side.
Organism: Staphylococcus aureus

SMILES | test | system | conditions | MIC
CC[C@H](C)[C@H](NC(=O)[C@H](CO)NC(=O)[C@@H](NC(=O)[C@H](C)NC(=O)[C@H](CCC(N)=O)NC(=O)CNC(=O)[C@@H](NC(=O)[C@@H](NC(=O)CNC(=O)[C@@H](NC(=O)[C@H](C)NC(=O)[C@@H]1CCCN1C(=O)CNC(=O)[C@H](C)NC(=O)[C@H](CCCCN)NC(=O)[C@@H](NC(=O)[C@@H](NC(=O)CNC(=O)[C@H](CC(=O)O)NC(=O)[C@H](CCCNC(=N)N)NC(=O)[C@@H](NC(=O)[C@H](CCCCN)NC(=O)[C@H](CCCNC(=N)N)NC(=O)CNC(=O)[C@@H](NC(=O)[C@H](CCCCN)NC(=O)[C@H](CCC(=O)O)NC(=O)[C@@H](NC(=O)[C@H](CCCCN)NC(=O)[C@H](CCCCN)NC(=O)[C@H](CC(C)C)NC(=O)[C@H](Cc1ccccc1)NC(=O)[C@H](CCCCN)NC(=O)[C@H](Cc1c[nH]c2ccccc12)NC(=O)[C@@H](N)CCCNC(=N)N)[C@@H](C)CC)C(C)C)C(C)C)C(C)C)[C@@H](C)CC)C(C)C)C(C)C)C(C)C)[C@@H](C)O)C(=O)N[C@@H](Cc1ccc(O)cc1)C(=O)N[C@@H](CCCCN)C(N)=O | broth microdilution | ATCC 29213 | 20 h, 37 °C | > 100 µg/mL
CC[C@H](C)[C@H](NC(=O)[C@H](CC(=O)O)NC(=O)[C@H](Cc1ccccc1)NC(=O)[C@H](CC(C)C)NC(=O)CN)C(=O)N[C@H](C(=O)N[C@@H](CCCCN)C(=O)N[C@@H](CCCCN)C(=O)N[C@H](C(=O)N[C@H](C(=O)N[C@@H](CCCCN)C(=O)N[C@@H](CC(C)C)C(=O)N[C@@H](CC(C)C)C(=O)N[C@@H](CCCCN)C(N)=O)C(C)C)C(C)C)C(C)C |  | ATCC 43300, CAMHB | 18 h, 37 °C | > 20 µM
CC(C)(C)c1cccc(C(C)(C)C)c1Oc1ccc([N+](=O)[O-])cc1[N+](=O)[O-] | microbial growth | ATCC25923 |  | > 500 µg/mL
CC[C@H](C)[C@H](NC(=O)[C@H](C)NC(=O)[C@H](CCC(=O)O)NC(=O)[C@H](Cc1c[nH]cn1)NC(=O)[C@H](CC(C)C)NC(=O)CNC(=O)[C@H](CCC(N)=O)NC(=O)[C@H](Cc1ccccc1)NC(=O)[C@@H](NC(=O)[C@H](CCCCN)NC(=O)[C@H](CCCCN)NC(=O)[C@H](CC(C)C)NC(=O)[C@@H](NC(=O)[C@H](CC(N)=O)NC(=O)[C@H](CC(C)C)NC(=O)CN)[C@@H](C)O)C(C)C)C(=O)N[C@@H](CCCCN)C(=O)N[C@@H](CC(C)C)C(=O)N[C@H](C(=O)N[C@@H](CC(N)=O)C(=O)N[C@@H](CC(N)=O)C(=O)N[C@@H](Cc1c[nH]cn1)C(=O)N[C@H](C(=O)N[C@@H](CCC(N)=O)C(=O)O)C(C)C)[C@@H](C)CC | broth microdilution | USA300 LAC | 37 °C | > 100 µM
N=C(N)NCCC[C@H](N)C(=O)N[C@@H](Cc1c[nH]c2ccccc12)C(=O)N[C@@H](Cc1c[nH]c2ccccc12)C(=O)N[C@@H](CCCCN)C(=O)N[C@@H](CCCCN)C(=O)N[C@@H](Cc1c[nH]c2ccccc12)C(=O)N[C@@H](Cc1c[nH]c2ccccc12)C(=O)NCC(=O)N[C@@H](CCCCN)C(N)=O | broth microdilution | USA300, Mueller-Hinton broth | overnight, 37 °C | 8 µM
CC(C)C[C@H](NC(=O)[C@H](C)NC(=O)CNC(=O)[C@@H](NC(=O)[C@@H](NC(=O)[C@H](CCCCN)NC(=O)[C@H](CCCCN)NC(=O)[C@@H](NC(=O)[C@H](CC(C)C)NC(=O)[C@H](CCCCN)NC(=O)[C@H](CC(C)C)NC(=O)[C@H](CC(C)C)NC(=O)[C@@H](N)CCCCN)C(C)C)C(C)C)C(C)C)C(=O)NCC(N)=O |  | ATCC 43300, CAMHB | 18 h, 37 °C | > 22 µM
CC(C)=CCCC(C)CC1CC(=O)c2c(O)cc(O)cc2O1 (stereo not shown) | broth microdilution | MRSA NRS70 |  | 3.13 to 6.25 µg/mL
O=c1cc(C(F)(F)F)[nH]c2cc(C(F)(F)F)cc(Nc3ccc(C(F)(F)F)cn3)c12 |  |  |  | < 0.125 µg/mL
CC(C)C[C@H](NC(=O)CN)C(=O)N[C@@H](Cc1ccccc1)C(=O)N[C@@H](CCCCN)C(=O)N[C@@H](CC(C)C)C(=O)N[C@@H](CC(C)C)C(=O)N[C@@H](CCCCN)C(=O)N[C@@H](CCCCN)C(=O)N[C@@H](CC(C)C)C(=O)N[C@@H](CC(C)C)C(=O)N[C@@H](CCCCN)C(=O)N[C@@H](CC(C)C)C(=O)N[C@@H](CC(C)C)C(=O)N[C@@H](CCCCN)C(N)=O |  | SH1000 GFP-expressing, nutrient broth | 20 h, 37 °C | 33 µM
CC[C@H](C)[C@H](NC(=O)[C@H](CCCCN)NC(=O)[C@H](CC(C)C)NC(=O)[C@H](Cc1ccccc1)NC(=O)[C@H](CCCNC(=N)N)NC(=O)[C@H](CC(C)C)NC(=O)[C@H](Cc1ccccc1)NC(=O)[C@H](CCCNC(=N)N)NC(=O)[C@H](CO)NC(=O)[C@H](CC(C)C)NC(=O)[C@@H](N)CO)C(=O)N[C@H](C(=O)N[C@@H](Cc1ccc(O)cc1)C(=O)N[C@@H](CCCNC(=N)N)C(=O)N[C@@H](CCCNC(=N)N)C(=O)N[C@@H](C)C(=O)N[C@@H](Cc1ccccc1)C(N)=O)C(C)C | broth microdilution | USA300 LAC | 37 °C | 12.5 µM
CC[C@H](C)[C@H](NC(=O)[C@H](CCCCN)NC(=O)[C@H](CCC(=O)O)NC(=O)[C@H](CCCCN)NC(=O)[C@H](CO)NC(=O)[C@H](CCCCN)NC(=O)[C@H](CCCNC(=N)N)NC(=O)[C@H](Cc1ccccc1)NC(=O)[C@H](Cc1ccccc1)NC(=O)[C@H](CC(=O)O)NC(=O)CNC(=O)[C@H](CC(C)C)NC(=O)[C@@H](N)CC(C)C)C(=O)NCC(=O)N[C@@H](CCCCN)C(=O)N[C@@H](CCC(=O)O)C(=O)N[C@@H](Cc1ccccc1)C(=O)N[C@@H](CCCCN)C(=O)N[C@@H](CCCNC(=N)N)C(=O)N[C@H](C(=O)N[C@H](C(=O)N[C@@H](CCC(N)=O)C(=O)N[C@@H](CCCNC(=N)N)C(=O)N[C@H](C(=O)N[C@@H](CCCCN)C(=O)N[C@@H](CC(=O)O)C(=O)N[C@@H](Cc1ccccc1)C(=O)N[C@@H](CC(C)C)C(=O)N[C@@H](CCCNC(=N)N)C(=O)N[C@@H](CC(N)=O)C(=O)N[C@@H](CC(C)C)C(=O)N[C@H](C(=O)N1CCC[C@H]1C(=O)N[C@@H](CCCNC(=N)N)C(=O)N[C@H](C(=O)N[C@@H](CCC(=O)O)C(=O)N[C@@H](CO)C(=O)O)[C@@H](C)O)C(C)C)[C@@H](C)CC)C(C)C)[C@@H](C)CC | broth microdilution | media-adapted JE2 | 18 to 20 h | 192 µg/mL
CC[C@H](C)[C@H](N)C(=O)N[C@@H](CC(N)=O)C(=O)N[C@@H](CC(C)C)C(=O)N[C@@H](CCCCN)C(=O)N[C@@H](C)C(=O)N[C@H](C(=O)N[C@@H](C)C(=O)N[C@@H](C)C(=O)N[C@@H](CC(C)C)C(=O)N[C@@H](C)C(=O)N[C@@H](CCCCN)C(=O)N[C@@H](CCCCN)C(=O)N[C@@H](CC(C)C)C(=O)N[C@@H](CC(C)C)C(=O)O)[C@@H](C)CC | broth microdilution | USA300 LAC | 37 °C | > 100 µM
NC(=O)c1cccc(O)c1O |  | ATCC 29213 | 50 µg/mL | inactive

For quick reference, copied from above:
SMILES | test | system | conditions | MIC
CC(C)C[C@H](NC(=O)CN)C(=O)N[C@@H](Cc1ccccc1)C(=O)N[C@@H](CCCCN)C(=O)N[C@@H](CC(C)C)C(=O)N[C@@H](CC(C)C)C(=O)N[C@@H](CCCCN)C(=O)N[C@@H](CCCCN)C(=O)N[C@@H](CC(C)C)C(=O)N[C@@H](CC(C)C)C(=O)N[C@@H](CCCCN)C(=O)N[C@@H](CC(C)C)C(=O)N[C@@H](CC(C)C)C(=O)N[C@@H](CCCCN)C(N)=O |  | SH1000 GFP-expressing, nutrient broth | 20 h, 37 °C | 33 µM
CC(C)(C)c1cccc(C(C)(C)C)c1Oc1ccc([N+](=O)[O-])cc1[N+](=O)[O-] | microbial growth | ATCC25923 |  | > 500 µg/mL
